Experimental data from different studies.
Parts stem from different laboratories: compare values within a part only. Values joined by “and” are separate records of one study, mostly repeats; a detail may differ.
Chain of UniProt Q9HBY8 (whole entry, looked up): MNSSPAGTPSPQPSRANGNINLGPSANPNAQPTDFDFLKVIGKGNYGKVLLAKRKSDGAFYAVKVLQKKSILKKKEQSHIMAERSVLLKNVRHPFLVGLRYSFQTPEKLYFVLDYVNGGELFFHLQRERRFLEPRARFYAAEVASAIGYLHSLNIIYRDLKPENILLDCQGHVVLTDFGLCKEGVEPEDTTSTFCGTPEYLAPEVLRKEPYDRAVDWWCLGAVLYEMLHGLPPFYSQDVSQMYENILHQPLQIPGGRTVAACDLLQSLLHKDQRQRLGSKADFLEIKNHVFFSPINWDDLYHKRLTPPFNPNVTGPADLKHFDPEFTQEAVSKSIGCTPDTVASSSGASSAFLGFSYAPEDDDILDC
Chain of UniProt P49760 (whole entry, looked up): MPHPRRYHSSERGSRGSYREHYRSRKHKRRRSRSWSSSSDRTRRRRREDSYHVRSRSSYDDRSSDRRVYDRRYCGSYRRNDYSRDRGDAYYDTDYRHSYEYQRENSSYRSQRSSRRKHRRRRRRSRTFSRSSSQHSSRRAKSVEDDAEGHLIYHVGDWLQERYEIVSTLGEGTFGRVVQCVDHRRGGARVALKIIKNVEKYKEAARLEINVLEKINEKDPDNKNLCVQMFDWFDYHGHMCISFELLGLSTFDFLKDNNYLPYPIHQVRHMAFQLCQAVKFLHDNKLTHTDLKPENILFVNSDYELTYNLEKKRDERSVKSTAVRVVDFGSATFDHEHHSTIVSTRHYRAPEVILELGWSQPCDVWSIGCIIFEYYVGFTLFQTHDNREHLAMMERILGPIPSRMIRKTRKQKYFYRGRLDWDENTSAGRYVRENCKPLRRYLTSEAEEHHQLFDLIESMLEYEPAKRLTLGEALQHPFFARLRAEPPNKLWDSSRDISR
Chain of UniProt P51957 (whole entry, looked up): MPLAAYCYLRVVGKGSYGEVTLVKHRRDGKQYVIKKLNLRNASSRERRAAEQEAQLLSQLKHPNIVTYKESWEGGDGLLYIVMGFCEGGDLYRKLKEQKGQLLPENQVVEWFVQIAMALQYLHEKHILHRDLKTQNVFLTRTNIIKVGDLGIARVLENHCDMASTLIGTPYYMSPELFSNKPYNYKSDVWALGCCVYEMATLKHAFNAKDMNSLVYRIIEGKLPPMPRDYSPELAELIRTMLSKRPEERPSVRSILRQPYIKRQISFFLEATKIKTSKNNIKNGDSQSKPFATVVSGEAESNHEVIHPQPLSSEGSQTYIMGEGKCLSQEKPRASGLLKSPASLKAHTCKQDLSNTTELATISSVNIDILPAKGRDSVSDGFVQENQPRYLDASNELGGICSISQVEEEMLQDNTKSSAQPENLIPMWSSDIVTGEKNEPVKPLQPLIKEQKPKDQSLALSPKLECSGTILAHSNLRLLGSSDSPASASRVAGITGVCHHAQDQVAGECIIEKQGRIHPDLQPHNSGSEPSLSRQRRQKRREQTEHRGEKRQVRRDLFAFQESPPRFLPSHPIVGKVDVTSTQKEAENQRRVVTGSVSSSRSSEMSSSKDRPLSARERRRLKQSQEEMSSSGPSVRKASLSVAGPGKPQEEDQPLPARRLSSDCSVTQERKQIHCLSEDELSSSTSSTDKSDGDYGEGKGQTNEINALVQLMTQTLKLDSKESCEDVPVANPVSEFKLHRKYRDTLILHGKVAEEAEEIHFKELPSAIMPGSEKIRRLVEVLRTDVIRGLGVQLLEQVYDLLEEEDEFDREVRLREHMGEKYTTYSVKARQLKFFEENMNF
Chain of UniProt P78356 (whole entry, looked up): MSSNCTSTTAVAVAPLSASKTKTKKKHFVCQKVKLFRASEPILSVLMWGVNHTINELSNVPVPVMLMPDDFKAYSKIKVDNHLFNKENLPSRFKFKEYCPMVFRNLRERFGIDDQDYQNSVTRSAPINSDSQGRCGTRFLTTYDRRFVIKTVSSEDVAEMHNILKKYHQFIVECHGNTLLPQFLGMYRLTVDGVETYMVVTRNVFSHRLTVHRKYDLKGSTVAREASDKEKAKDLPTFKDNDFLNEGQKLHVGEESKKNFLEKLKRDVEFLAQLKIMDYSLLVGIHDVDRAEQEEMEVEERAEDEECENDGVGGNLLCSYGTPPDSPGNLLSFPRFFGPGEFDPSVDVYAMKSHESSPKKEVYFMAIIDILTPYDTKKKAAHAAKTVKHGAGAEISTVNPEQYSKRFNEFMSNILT
Chain of UniProt O15146 (whole entry, looked up): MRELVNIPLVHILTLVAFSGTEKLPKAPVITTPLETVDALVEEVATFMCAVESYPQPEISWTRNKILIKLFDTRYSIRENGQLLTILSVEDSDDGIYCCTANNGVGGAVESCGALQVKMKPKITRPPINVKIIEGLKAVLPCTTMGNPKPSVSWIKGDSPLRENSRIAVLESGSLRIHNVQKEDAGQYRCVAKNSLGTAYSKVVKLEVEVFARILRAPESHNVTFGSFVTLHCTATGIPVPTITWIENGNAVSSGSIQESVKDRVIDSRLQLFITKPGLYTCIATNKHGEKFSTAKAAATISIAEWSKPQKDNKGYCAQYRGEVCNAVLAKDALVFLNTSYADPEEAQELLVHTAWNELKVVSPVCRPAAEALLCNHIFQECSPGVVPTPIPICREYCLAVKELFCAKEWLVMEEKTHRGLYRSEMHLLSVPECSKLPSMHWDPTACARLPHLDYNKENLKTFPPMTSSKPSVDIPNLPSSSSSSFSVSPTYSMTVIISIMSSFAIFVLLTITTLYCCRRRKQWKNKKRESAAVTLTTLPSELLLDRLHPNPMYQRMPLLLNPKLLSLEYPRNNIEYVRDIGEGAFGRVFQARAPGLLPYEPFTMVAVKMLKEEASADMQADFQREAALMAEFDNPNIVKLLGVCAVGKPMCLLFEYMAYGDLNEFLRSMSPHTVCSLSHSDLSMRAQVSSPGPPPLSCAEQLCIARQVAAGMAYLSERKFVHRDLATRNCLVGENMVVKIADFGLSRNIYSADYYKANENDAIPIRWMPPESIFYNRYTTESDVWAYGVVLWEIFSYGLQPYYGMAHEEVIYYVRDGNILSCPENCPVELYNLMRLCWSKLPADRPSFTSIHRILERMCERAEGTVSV
Chain of UniProt Q9BUB5 (whole entry, looked up): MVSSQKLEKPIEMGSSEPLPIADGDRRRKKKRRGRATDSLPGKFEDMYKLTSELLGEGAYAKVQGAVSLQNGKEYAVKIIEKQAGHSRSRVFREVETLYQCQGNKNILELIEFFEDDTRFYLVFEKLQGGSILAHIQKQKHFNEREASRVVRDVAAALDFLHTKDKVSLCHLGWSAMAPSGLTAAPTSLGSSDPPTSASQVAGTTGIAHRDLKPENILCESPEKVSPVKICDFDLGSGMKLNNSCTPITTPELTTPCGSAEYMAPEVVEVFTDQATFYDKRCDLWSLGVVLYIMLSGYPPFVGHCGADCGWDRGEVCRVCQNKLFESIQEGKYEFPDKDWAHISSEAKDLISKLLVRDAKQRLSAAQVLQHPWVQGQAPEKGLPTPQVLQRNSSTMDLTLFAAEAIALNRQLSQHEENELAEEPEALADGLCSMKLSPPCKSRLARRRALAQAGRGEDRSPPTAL
Chain of UniProt O43293 (whole entry, looked up): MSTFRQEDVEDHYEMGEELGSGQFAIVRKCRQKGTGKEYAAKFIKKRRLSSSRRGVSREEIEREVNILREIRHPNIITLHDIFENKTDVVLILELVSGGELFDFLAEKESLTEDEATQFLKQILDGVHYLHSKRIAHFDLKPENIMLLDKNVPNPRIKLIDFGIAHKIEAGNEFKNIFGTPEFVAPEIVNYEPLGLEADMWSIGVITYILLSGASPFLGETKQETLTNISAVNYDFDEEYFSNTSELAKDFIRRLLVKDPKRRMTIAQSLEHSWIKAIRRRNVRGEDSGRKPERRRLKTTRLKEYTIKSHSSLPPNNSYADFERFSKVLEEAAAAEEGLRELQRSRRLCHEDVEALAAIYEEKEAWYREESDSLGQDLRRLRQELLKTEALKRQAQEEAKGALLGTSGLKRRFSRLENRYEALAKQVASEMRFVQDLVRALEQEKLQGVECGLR

Sample 1
Structure (SMILES): CN(C)C(=O)Cn1cc(-c2nc(C3(c4ccc(-c5cnc(N)nc5)cc4)CC3)no2)cn1
Technique: competition with immobilised ligand
Concentration: 1 µM
target	effect on	remaining binding
MAP kinase-interacting serine/threonine-protein kinase 1 (MKNK1, Homo sapiens, UniProt Q9BUB5)	cell-free assay	85%
Serine/threonine-protein kinase DCLK2 (DCLK2, Homo sapiens, UniProt Q8N568)	cell-free assay	96%
Calcium/calmodulin-dependent protein kinase type II subunit delta (CAMK2D, Homo sapiens, UniProt Q13557)	cell-free assay	99%
Discoidin domain-containing receptor 2 (DDR2, Homo sapiens, UniProt Q16832)	cell-free assay	100%
ALK tyrosine kinase receptor (ALK, Homo sapiens, UniProt Q9UM73, C1156Y)	cell-free assay	100%
Serine/threonine-protein kinase Nek4 (NEK4, Homo sapiens, UniProt P51957)	cell-free assay	95%
Activin receptor type-2A (ACVR2A, Homo sapiens, UniProt P27037)	cell-free assay	84%
Serine/threonine-protein kinase Sgk2 (SGK2, Homo sapiens, UniProt Q9HBY8)	cell-free assay	100%
Death-associated protein kinase 3 (DAPK3, Homo sapiens, UniProt O43293)	cell-free assay	92%
Tyrosine-protein kinase JAK3, JH1 (JAK3, Homo sapiens, UniProt P52333)	cell-free assay	80%
Receptor-interacting serine/threonine-protein kinase 4 (RIPK4, Homo sapiens, UniProt P57078)	cell-free assay	70%
Macrophage colony-stimulating factor 1 receptor, autoinhibited (CSF1R, Homo sapiens, UniProt P07333)	cell-free assay	84%
Aurora kinase B (AURKB, Homo sapiens, UniProt Q96GD4)	cell-free assay	41%
Myosin-IIIa (MYO3A, Homo sapiens, UniProt Q8NEV4)	binding	100%
Cyclin-dependent kinase 2 (CDK2, Homo sapiens, UniProt P24941)	cell-free assay	100%
Proto-oncogene tyrosine-protein kinase receptor Ret (RET, Homo sapiens, UniProt P07949, M918T)	cell-free assay	99%
Leukocyte tyrosine kinase receptor (LTK, Homo sapiens, UniProt P29376)	cell-free assay	90%
Receptor-type tyrosine-protein kinase FLT3 (FLT3, Homo sapiens, UniProt P36888, ITD)	cell-free assay	100%
Phosphatidylinositol 5-phosphate 4-kinase type-2 beta (PIP4K2B, Homo sapiens, UniProt P78356)	cell-free assay	71%

Sample 2
Compound: COc1cc2c(Nc3ccc(Br)cc3F)ncnc2cc1OCC1CCN(C)CC1
Effect on: enzyme activity
Mode: inhibitor
Concentration: 0.5 µM
Reference: control
target	remaining activity [%]
Ribosomal protein S6 kinase alpha-3 (RPS6KA3, Homo sapiens, UniProt P51812)	97.8
Ephrin type-A receptor 2 (EPHA2, Homo sapiens, UniProt P29317)	21.5
Tyrosine-protein kinase receptor TYRO3 (TYRO3, Homo sapiens, UniProt Q06418)	33
Serine/threonine-protein kinase SIK2 (SIK2, Homo sapiens, UniProt Q9H0K1)	17.6
Serine/threonine-protein kinase PAK 6 (PAK6, Homo sapiens, UniProt Q9NQU5)	105
Serine/threonine-protein kinase PAK 1 (PAK1, Homo sapiens, UniProt Q13153)	108
SRSF protein kinase 1 (SRPK1, Homo sapiens, UniProt Q96SB4)	97.9
Insulin-like growth factor 1 receptor (IGF1R, Homo sapiens, UniProt P08069)	94.6
Dual specificity protein kinase CLK2 (CLK2, Homo sapiens, UniProt P49760)	89.7
Serine/threonine-protein kinase Sgk2 (SGK2, Homo sapiens, UniProt Q9HBY8)	122
Tyrosine-protein kinase Tec (TEC, Homo sapiens, UniProt P42680)	91.6
Muscle, skeletal receptor tyrosine-protein kinase (MUSK, Homo sapiens, UniProt O15146)	94.6
Calcium/calmodulin-dependent protein kinase kinase 1 (CAMKK1, Homo sapiens, UniProt Q8N5S9)	90.4

Sample 3
Cell line: A-375
Concentration: 100 µM
Time: 36 h
SMILES	viability [%]
Cc1ccc(=O)n(-c2ccccc2)c1	102
N=C1CCCN1Cc1[nH]c(=O)[nH]c(=O)c1Cl	95.8
CC(=O)OCC(=O)[C@@]12OC(C)(C)O[C@@H]1C[C@H]1[C@@H]3C[C@H](F)C4=CC(=O)C=C[C@]4(C)[C@@]3(F)[C@@H](O)C[C@@]12C	81.2
Cc1ncc(C[n+]2csc(CCO)c2C)c(N)n1	89.5
C[C@]12CC[C@@H]3c4ccc(OS(=O)(=O)O)cc4CC[C@H]3[C@@H]1CCC2=O	120
Cc1cccc(C)c1NC(=O)C1CCCCN1C (stereo not drawn)	103
O=C(CS(=O)(=O)Cc1ccccc1)N1CCOCC1	111
CCc1cccc2c3c([nH]c12)C(CC)(CC(=O)O)OCC3 (stereo not drawn)	115
CCN(Cc1ccncc1)C(=O)C(CO)c1ccccc1 (stereo not drawn)	106
O=C1c2c(O)cccc2C([C@@H]2O[C@H](CO)[C@@H](O)[C@H](O)[C@H]2O)c2cc(CO)cc(O)c21 (stereo partly drawn)	95
CC(=O)OCC(=O)[C@@]1(O)CC[C@H]2[C@@H]3CCC4=CC(=O)CC[C@]4(C)[C@H]3C(=O)C[C@@]21C	124
O=C(O)c1ccccc1Nc1cccc(C(F)(F)F)c1	95

Sample 4
Cell line: mouse MPNST tumor cells
Technique: high-content nuclear imaging
Item: cell number
Concentration: 10 µM
Time: 12 h
Setting: mean of 2 replicates
Reference: plate mean
Reading: higher = more cells
SMILES	nuclei count
CN(C)c1ccc(O)c2c1C[C@H]1C[C@H]3[C@H](N(C)C)C(=O)C(C(N)=O)=C(O)[C@@]3(O)C(=O)C1=C2O	-0.867 z-score
O=C(CCCCCCC(=O)NO)NO	1.13 z-score
OC(c1cc(C(F)(F)F)nc2c(C(F)(F)F)cccc12)C1CCCCN1 (stereo not drawn)	-4.94 z-score and -5.94 z-score
O=C(O)c1cc(-c2ccc(F)cc2F)ccc1O	1.16 z-score
COc1cc(C(=O)NC2CC3CCCC(C2)N3CC(=O)Nc2ccccc2Cl)cc(OC)c1OC (stereo not drawn)	2.74 z-score
CC(C)(C)C(=O)C(=Cc1cccc([N+](=O)[O-])c1)n1cncn1	-6.3 z-score
CN(C)C(=O)COC(=O)Cc1ccc(OC(=O)c2ccc(NC(=N)N)cc2)cc1	1.33 z-score
COc1cc(OC2CCN(C)CC2)ccc1Nc1ncc2c(n1)n(C1CCCC1)c(=O)n2C	-4.15 z-score
COc1cc(C(=S)N2CCOCC2)cc(OC)c1OC	0.953 z-score
CC(=O)N(C)c1cccc(-c2ccc3nnc(C)n3n2)c1	1.75 z-score
COc1cc2c(cc1OC)CN(C(=O)[C@@H](NCc1ccncc1)C(C)(C)C)CC2	-1 z-score
O=c1[nH]c(=O)n(C2CCCO2)cc1F (stereo not drawn)	1.36 z-score
C/C(=C(\CCOP(=O)(O)O)SC(=O)c1ccccc1)N(C=O)Cc1cnc(C)nc1N	0.6 z-score

A few entries again (sample 1):
target	effect on	remaining binding
Activin receptor type-2A (ACVR2A, Homo sapiens, UniProt P27037)	cell-free assay	84%
MAP kinase-interacting serine/threonine-protein kinase 1 (MKNK1, Homo sapiens, UniProt Q9BUB5)	cell-free assay	85%
Myosin-IIIa (MYO3A, Homo sapiens, UniProt Q8NEV4)	binding	100%
Receptor-type tyrosine-protein kinase FLT3 (FLT3, Homo sapiens, UniProt P36888, ITD)	cell-free assay	100%
Phosphatidylinositol 5-phosphate 4-kinase type-2 beta (PIP4K2B, Homo sapiens, UniProt P78356)	cell-free assay	71%
Tyrosine-protein kinase JAK3, JH1 (JAK3, Homo sapiens, UniProt P52333)	cell-free assay	80%
Aurora kinase B (AURKB, Homo sapiens, UniProt Q96GD4)	cell-free assay	41%
Macrophage colony-stimulating factor 1 receptor, autoinhibited (CSF1R, Homo sapiens, UniProt P07333)	cell-free assay	84%
